Measured values pooled from the literature.
Protocols differ between the studies behind these lines. Numbers after ± are the reported error. Converted amounts (≈) assume the structure as drawn.
rep main protease: Replicase polyprotein 1ab, main protease (rep, Severe acute respiratory syndrome coronavirus 2, UniProt P0DTD1)

SMILES | tested on | test | system | conditions | scale | quantity | value
CCOc1ccc(C(=O)Nc2ccc(N3CCCN(C(=O)c4cnccn4)CC3)nc2)cc1 | Mycobacterium tuberculosis | bacterial growth | H37Ra-lux | 168 h | – | IC90 | > 64 µM
CCOc1ccc(CN2CCN(Cc3ccc4c(c3)c3ccccc3n4CC)CC2)cc1 | SARS-CoV-2 | cytopathic effect, cell-based CPE | USA_WA1/2020 | round 2, 5-point dilution | – | AC50 | 11.2 µM
CC(C)=CCc1c(O)ccc(C(=O)/C=C/c2ccc(O)cc2)c1O | SARS-CoV-2 | cytopathic effect | Vero E6 | 50 µM, replicate run | – | mean inhibition | 33.3%
CCCN(Cc1ccc(SC)cc1)C(=O)c1cnc2ccccn2c1=O | Lassa mammarenavirus | viral replication | Huh-7 | 10 µM, 72 h | – | remaining activity | 43%
CN(C)CCOC(C)(c1ccccc1)c1ccc(Cl)cc1 (stereo not drawn) | Marburg virus | pseudovirus entry | A549 | – | relative to: CC50 over IC50 | selectivity index | 9
CCC(CC)COC(=O)[C@H](C)N[P@](=O)(OC[C@H]1O[C@@](C#N)(c2ccc3c(N)ncnn23)[C@H](O)[C@@H]1O)Oc1ccccc1 | SARS-CoV | viral replication | Vero C1008 | – | – | EC90 | 2.7 µM
O=C(Nc1ncc(Cc2cccc3ccccc23)s1)c1ccccc1 | Histoplasma capsulatum | microbial growth | – | – | – | MIC | > 20 µM
CCc1ccc(Sc2cc(C(=O)NCCCN3CCCC(C)C3)c3ccccc3n2)cc1 (stereo not drawn) | SARS-CoV-2 | cytopathic effect | USA_WA1/2020 | retest 8-point | – | efficacy | 86.6%
CCc1c(C(=O)C(N)=O)c2c(OCC(=O)O)cccc2n1Cc1ccccc1 | Daboia russelii | – | C2C12 | 100 µM, added: Daboia russelii venom PB | relative to: venom alone | viability difference | -63.9%
CC(C)(C)NCc1ccc(Nc2ccnc3cc(Cl)ccc23)cc1O | SARS-CoV-2 | cytopathic effect | USA_WA1/2020 | retest, 8-point, duplicates | – | maximum response | 70.1%
CCn1c(CC2CCN(C(=O)c3ccc(CN(C)C)o3)CC2)nn(C)c1=O | Lassa mammarenavirus | viral replication | Huh-7 | 10 µM, 72 h | – | remaining activity | 55%
CN1CCN(CCCN2c3ccccc3Sc3ccc(C(F)(F)F)cc32)CC1 | SARS-CoV-2 | viral replication, GFP plate reader screen | – | cell-based | – | EC50 | 6.46 µM
CCc1nccn1Cc1nc(-c2cc(C)c(OC)cc2C)oc1C | Lassa mammarenavirus | viral replication | Huh-7 | 10 µM, 72 h | – | remaining activity | 1%
Cc1cc(NC(=O)c2cc3c(=O)n4cccc(C)c4nc3n2C)ccc1Br | Severe acute respiratory syndrome coronavirus 2 | viral replication, inhibitor, qPCR | Vero C1008 | – | – | EC90 | 1.41 µM
CC(=O)c1ccc2c(c1)N(CCCN(C)C)c1ccccc1S2 | SARS-CoV-2 | viral replication, high-content imaging screen | – | cell-based | – | EC50 | > 100 µM
COc1cccc(C2(C(=O)N3CCC4(CC3)CC(CNS(=O)(=O)N(C)C)CCO4)CCCC2)c1 (stereo not drawn) | Venezuelan equine encephalitis virus | viral replication | – | – | – | EC50 | 20 µM
CC1CCCCN1CCCNC(=O)c1cc(Sc2cccc(Cl)c2)nc2ccccc12 (stereo not drawn) | SARS-CoV-2 | cytopathic effect, cell-based CPE | USA_WA1/2020 | round 2, 5-point dilution | – | efficacy | 109%
Nc1ccc2cc3ccc(N)cc3nc2c1 | SARS-CoV-2 | viral replication, high-content imaging screen | – | cell-based | – | EC50 | > 25.1 µM
Nc1ncnc2c1ncn2[C@@H]1O[C@@H]2COP(=O)(O)O[C@H]3[C@@H](O)[C@H](n4cnc5c(=O)[nH]cnc54)O[C@@H]3COP(=O)(O)O[C@H]2[C@H]1O | Chikungunya virus | upregulated Reactome pathway, RNA sequencing, item: Gene expression (Transcription) (R-HSA-74160) | HFF-1 | – | relative to: CHIKV-infected untreated | fold enrichment | 1.84
CN(C)CCNC(=O)c1ccc2c(c1)C1(CCN(CC3CC3)C1)CN2Cc1ccccc1 (stereo not drawn) | SARS-CoV-2 | cytopathic effect, cell-based CPE | USA_WA1/2020 | – | – | AC50 | 7.94 µM
CC(C)(C)NC(=O)[C@@H]1C[C@@H]2CCCC[C@@H]2CN1C[C@@H](O)[C@H](Cc1ccccc1)NC(=O)[C@H](CC(N)=O)NC(=O)c1ccc2ccccc2n1 | rep main protease | reporter gene (Gaussia luciferase), inhibitor | – | 20 µM | – | inhibition | 0.449%
CCN(CCO)CCCC(C)Nc1ccnc2cc(Cl)ccc12 (stereo not drawn) | SARS-CoV-2 Delta | viral replication | A549-ACE2 | 48 h | – | IC50 | 20.4 µM
CC#CCN1CC=C(c2cnn(CCCC)c2)CC1 | Lassa mammarenavirus | viral replication | Huh-7 | 10 µM, 72 h | – | remaining activity | 63%
OCCOCCN1CCN(C(c2ccccc2)c2ccc(Cl)cc2)CC1 (stereo not drawn) | Marburg virus | pseudovirus entry | A549 | – | relative to: CC50 over IC50 | selectivity index | 12
CCN(CC)CCNC(=O)c1[nH]c2ccccc2c1Sc1ccc(Cl)cc1 | SARS-CoV-2 | cytopathic effect, cell-based CPE | USA_WA1/2020 | round 2, 5-point dilution | – | AC50 | 12.6 µM
CNC(=O)[C@@H](NC(=O)[C@H](CC(C)C)[C@H](O)C(=O)NO)C(C)(C)C | Daboia russelii | – | C2C12 | 100 µM, added: Daboia russelii venom PB | relative to: venom alone | viability difference | -18.7%

SMILES | tested on | test | system | conditions | scale | quantity | value
CC[C@H](C)[C@H](NC(=O)[C@H](CC(C)C)NC(=O)[C@H](Cc1c[nH]c2ccccc12)NC(=O)[C@H](CCC(N)=O)NC(=O)[C@@H](NC(=O)[C@H](Cc1ccccc1)NC(=O)[C@H](C)NC(=O)[C@H](CCCCNC(=O)COCCOCCNC(=O)COCCOCCNC(=O)CC[C@H](NC(=O)CCCCCCCCCCCCCCCCCCC(=O)O)C(=O)O)NC(=O)[C@H](CCC(N)=O)NC(=O)[C@H](C)NC(=O)[C@@H](NC(=O)[C@H](CCCCN)NC(=O)[C@H](CC(=O)O)NC(=O)[C@H](CC(C)C)NC(=O)C(C)(C)NC(=O)[C@@H](NC(=O)[C@H](CO)NC(=O)[C@H](Cc1ccc(O)cc1)NC(=O)[C@H](CC(=O)O)NC(=O)[C@H](CO)NC(=O)[C@@H](NC(=O)[C@H](Cc1ccccc1)NC(=O)[C@@H](NC(=O)CNC(=O)[C@H](CCC(=O)O)NC(=O)C(C)(C)NC(=O)[C@@H](N)Cc1ccc(O)cc1)[C@@H](C)O)[C@@H](C)O)[C@@H](C)CC)[C@@H](C)CC)C(C)C)C(=O)N[C@@H](C)C(=O)NCC(=O)NCC(=O)N1CCC[C@H]1C(=O)N[C@@H](CO)C(=O)N[C@@H](CO)C(=O)NCC(=O)N[C@@H](C)C(=O)N1CCC[C@H]1C(=O)N1CCC[C@H]1C(=O)N1CCC[C@H]1C(=O)N[C@@H](CO)C(N)=O | – | – | healthy subjects | 4.5 mg, multiple ascending dose | – | severe hypoglycaemia | 0%
Cc1nc2n(n1)CC(=O)N[C@@H](C(C)C)CN(C(=O)COC(C)C)CC(=O)N[C@@H](CC(C)C)c1nc(cs1)C(=O)N[C@H]2Cc1ccccc1 | Lassa mammarenavirus | viral replication | Huh-7 | 10 µM, 72 h | – | remaining activity | 112%
Nc1ncnc2c([C@@H]3N[C@H](CO)[C@@H](O)[C@H]3O)c[nH]c12 | Marburg virus | – | HeLa, Musoke | 3.1 µM, 1 h | – | viral RNA copies | 1.42e+07 copies/mL
N[C@@H](CCCCNC(=O)OCc1ccc([N+](=O)[O-])cc1)C(=O)N1CCCC1 | rep main protease | viral replication, Gluc reporter | SARS-CoV-2 | 20 µM | – | inhibition | -0.432%
COc1ccc(C[C@@H]2NC(=O)[C@@H](NC(=O)Cc3ccc4c(c3)OCO4)Cc3ccc(cc3)OC[C@H](CC(C)C)NC(=O)CN(CC3CC3)C(=O)[C@@H](C)NC2=O)cc1 | Lassa mammarenavirus | viral replication | Huh-7 | concentration not given | – | Emax | 63.1%
O=C(Nc1ncc(Cc2ccccc2)s1)C1CCCC1 | Histoplasma capsulatum | microbial growth | – | – | – | MIC | 5 µM (≈ 1.43 µg/mL)
CCCCN(CCCNC(=O)c1cc(Nc2ccc(OC)c(OC)c2)nc2ccccc12)Cc1ccccc1 | SARS-CoV-2 | cytopathic effect | USA_WA1/2020 | round 2, 5-point | – | efficacy | 69.2%
Cc1nc2n(n1)CC(=O)N[C@@H](C(C)C)CN(C(=O)CO)CC(=O)N[C@@H](CC(C)C)c1nc(cs1)C(=O)N[C@H]2Cc1ccccc1 | Lassa mammarenavirus | viral replication | Huh-7 | 10 µM, 72 h | – | remaining activity | 105%
CN1[C@@H]2CC[C@H]1C[C@@H](OC(c1ccccc1)c1ccc(Cl)cc1)C2 (stereo partly drawn) | SARS-CoV-2 | viral replication, high-content imaging screen | – | cell-based | – | EC50 | > 100 µM
O=C(O[C@@H]1Cc2c(O)cc(O)cc2O[C@@H]1c1cc(O)c(O)c(O)c1)c1cc(O)c(O)c(O)c1 | Severe acute respiratory syndrome coronavirus 2 | cytopathic effect, inhibitor | Vero C1008 | 25 µM | – | inhibition | 16.7%
Cn1cnc(Cn2c(=O)[nH]/c(=N\c3cc4cn(C)nc4cc3Cl)n(Cc3cc(F)c(F)cc3F)c2=O)n1 | – | – | human, all renal function groups | oral, 375 mg | – | dry mouth TEAE, Moderate severity | 0%
O=S(=O)(c1cccc(Oc2ccccc2)c1)N1CCn2cncc2C1 | Lassa mammarenavirus | viral replication | Huh-7 | 10 µM, 72 h | – | remaining activity | 38%
CN(C)CCOC(c1ccc(Cl)cc1)c1ccccn1 (stereo not drawn) | Marburg virus | HIV/MARV pseudovirion entry | A549 | 48 h | – | IC50 | 38.8 ± 12.1 µM
O=C1c2c(O)c(=O)ccn2N([C@@H]2c3ccccc3SCc3c2ccc(F)c3F)[C@@H]2COCCN12 | Influenza A virus | viral replication | A(H5N6) A/falcon/Hong Kong/4955/2015 | mean | – | EC50 | 0.00034 ± 4e-05 µM
Cc1ccc(C2(C(=O)N3CCC4(CC3)CC(CNS(C)(=O)=O)CCO4)CCCC2)cc1 (stereo not drawn) | Venezuelan equine encephalitis virus | viral replication | – | 40 µM | – | inhibition | < 10%
CNCc1ccc(-c2cc(-c3nc(-c4ccc(S(=O)(=O)C(C)C)cc4)cnc3N)on2)cc1 | SARS-CoV-2 | viral replication, GFP plate reader screen | – | cell-based | – | EC50 | > 5.01 µM
CC1CCCCN1CCCNC(=O)c1cc(Sc2ccc(Cl)cc2)nc2ccccc12 (stereo not drawn) | SARS-CoV-2 | cytopathic effect | USA_WA1/2020 | first round 5-point | – | efficacy | 103%
NC(=O)c1ncn([C@@H]2O[C@H](CO)[C@@H](O)[C@H]2O)n1 | Mammarenavirus lassaense | viral replication | Vero | 48 h | – | IC90 | 14 µg/mL
O=C(Nc1ccc(N2CCCN(C(=O)c3cnccn3)CC2)nc1)c1cccc([N+](=O)[O-])c1 | Mycobacterium tuberculosis | bacterial growth | H37Ra-lux | 168 h | – | IC90 | > 64 µM
CN1CCN(CCCN2c3ccccc3Sc3ccc(S(=O)(=O)N(C)C)cc32)CC1 | SARS-CoV-2 | viral replication, GFP plate reader screen | – | cell-based | – | EC50 | 13.2 µM
Cn1c(=O)ccc2ccc(F)c(CCNC[C@H]3CN(c4cnc5c(n4)NC(=O)CO5)C(=O)O3)c21 | Ralstonia pickettii | – | – | – | – | MIC50 | 0.03 µg/mL (≈ 0.064 µM)
CCCC(C(=O)OCCN(CC)CC)(c1ccccc1)c1ccccc1 | SARS-CoV-2 | viral replication, GFP plate reader screen | – | cell-based | – | EC50 | 5.13 µM
O=C(NCCc1ccncc1)C1CN(C(=O)c2cccn2Cc2ccc(Cl)cc2)C1 | western equine encephalitis virus | viral replication, replicon | – | – | – | potency | decreased
CC(=O)c1ccc2c(c1)N(CCCN1CCN(CCO)CC1)c1ccccc1S2 | SARS-CoV-2 | viral replication, high-content imaging screen | – | cell-based | – | EC50 | > 100 µM
O=C(/C=C/c1ccc(O)c(O)c1/C=C/c1ccc(O)c(O)c1)O[C@H](Cc1ccc(O)c(O)c1)C(=O)O | SARS-CoV-2 | cytopathic effect | Vero E6 | 0.7812 µM, replicate run | – | mean inhibition | 0%
